Assay results gathered from unrelated publications.
Each numbered part is a random draw from the data of one study; scales do not carry over between parts. Several values in a cell are separate wells, animals, samples, runs or records.
UniProt P37023, sequence (whole entry, looked up): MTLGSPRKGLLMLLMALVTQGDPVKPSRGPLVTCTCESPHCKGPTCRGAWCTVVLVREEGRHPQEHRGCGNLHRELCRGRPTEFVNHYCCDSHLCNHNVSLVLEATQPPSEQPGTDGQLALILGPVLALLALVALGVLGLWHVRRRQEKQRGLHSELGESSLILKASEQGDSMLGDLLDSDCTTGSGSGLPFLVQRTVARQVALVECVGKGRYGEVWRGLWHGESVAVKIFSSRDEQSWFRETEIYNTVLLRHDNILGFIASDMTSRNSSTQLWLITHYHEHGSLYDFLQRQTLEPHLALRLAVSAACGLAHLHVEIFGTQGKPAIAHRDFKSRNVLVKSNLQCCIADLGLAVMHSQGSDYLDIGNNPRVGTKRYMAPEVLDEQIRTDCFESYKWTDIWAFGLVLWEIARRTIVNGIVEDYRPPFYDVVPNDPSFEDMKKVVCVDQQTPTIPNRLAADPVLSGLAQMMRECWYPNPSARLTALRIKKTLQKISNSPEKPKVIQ
UniProt Q9H0K1, sequence (whole entry, looked up): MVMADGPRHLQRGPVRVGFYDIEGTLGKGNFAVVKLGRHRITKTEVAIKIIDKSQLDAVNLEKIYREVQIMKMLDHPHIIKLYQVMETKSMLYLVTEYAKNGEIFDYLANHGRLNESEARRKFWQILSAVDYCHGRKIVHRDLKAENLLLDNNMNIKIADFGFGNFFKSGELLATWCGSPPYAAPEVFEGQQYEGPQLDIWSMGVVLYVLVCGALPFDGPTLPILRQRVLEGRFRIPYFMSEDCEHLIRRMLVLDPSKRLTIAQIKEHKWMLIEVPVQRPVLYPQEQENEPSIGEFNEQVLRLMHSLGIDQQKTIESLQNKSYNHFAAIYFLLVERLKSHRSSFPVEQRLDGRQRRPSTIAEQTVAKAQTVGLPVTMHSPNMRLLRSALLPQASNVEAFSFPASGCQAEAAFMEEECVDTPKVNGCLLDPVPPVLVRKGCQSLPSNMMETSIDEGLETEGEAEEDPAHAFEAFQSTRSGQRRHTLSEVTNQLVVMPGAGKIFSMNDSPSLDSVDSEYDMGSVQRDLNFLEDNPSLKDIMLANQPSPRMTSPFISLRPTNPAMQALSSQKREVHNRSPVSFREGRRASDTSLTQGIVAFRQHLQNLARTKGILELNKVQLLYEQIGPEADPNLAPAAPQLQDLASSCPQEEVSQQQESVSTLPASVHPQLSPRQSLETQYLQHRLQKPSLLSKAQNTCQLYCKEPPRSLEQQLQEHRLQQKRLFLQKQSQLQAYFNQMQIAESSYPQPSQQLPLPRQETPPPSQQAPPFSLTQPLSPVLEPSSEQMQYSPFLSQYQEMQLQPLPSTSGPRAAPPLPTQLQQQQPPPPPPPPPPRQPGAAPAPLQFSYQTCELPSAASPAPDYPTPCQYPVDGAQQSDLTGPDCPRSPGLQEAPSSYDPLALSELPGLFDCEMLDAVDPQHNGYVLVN
UniProt Q15418, sequence (whole entry, looked up): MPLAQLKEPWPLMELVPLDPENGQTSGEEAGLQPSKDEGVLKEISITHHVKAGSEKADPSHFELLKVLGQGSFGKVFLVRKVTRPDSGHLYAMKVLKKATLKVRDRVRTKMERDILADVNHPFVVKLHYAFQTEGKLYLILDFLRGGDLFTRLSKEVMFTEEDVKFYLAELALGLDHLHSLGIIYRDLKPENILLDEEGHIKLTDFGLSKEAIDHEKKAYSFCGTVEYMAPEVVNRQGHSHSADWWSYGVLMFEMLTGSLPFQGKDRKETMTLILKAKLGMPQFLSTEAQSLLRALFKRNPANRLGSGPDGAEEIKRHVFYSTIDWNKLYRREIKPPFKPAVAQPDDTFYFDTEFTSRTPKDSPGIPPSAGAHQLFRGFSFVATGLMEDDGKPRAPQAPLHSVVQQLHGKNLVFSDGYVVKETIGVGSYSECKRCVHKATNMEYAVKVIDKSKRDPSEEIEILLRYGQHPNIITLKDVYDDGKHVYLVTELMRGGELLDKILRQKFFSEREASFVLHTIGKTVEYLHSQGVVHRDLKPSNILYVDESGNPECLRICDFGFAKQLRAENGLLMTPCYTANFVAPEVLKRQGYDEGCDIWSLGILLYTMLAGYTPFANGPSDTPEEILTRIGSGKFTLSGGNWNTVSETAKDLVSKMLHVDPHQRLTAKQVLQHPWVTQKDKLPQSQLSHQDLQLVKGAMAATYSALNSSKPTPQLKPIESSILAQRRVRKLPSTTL
UniProt Q59H18, sequence (whole entry, looked up): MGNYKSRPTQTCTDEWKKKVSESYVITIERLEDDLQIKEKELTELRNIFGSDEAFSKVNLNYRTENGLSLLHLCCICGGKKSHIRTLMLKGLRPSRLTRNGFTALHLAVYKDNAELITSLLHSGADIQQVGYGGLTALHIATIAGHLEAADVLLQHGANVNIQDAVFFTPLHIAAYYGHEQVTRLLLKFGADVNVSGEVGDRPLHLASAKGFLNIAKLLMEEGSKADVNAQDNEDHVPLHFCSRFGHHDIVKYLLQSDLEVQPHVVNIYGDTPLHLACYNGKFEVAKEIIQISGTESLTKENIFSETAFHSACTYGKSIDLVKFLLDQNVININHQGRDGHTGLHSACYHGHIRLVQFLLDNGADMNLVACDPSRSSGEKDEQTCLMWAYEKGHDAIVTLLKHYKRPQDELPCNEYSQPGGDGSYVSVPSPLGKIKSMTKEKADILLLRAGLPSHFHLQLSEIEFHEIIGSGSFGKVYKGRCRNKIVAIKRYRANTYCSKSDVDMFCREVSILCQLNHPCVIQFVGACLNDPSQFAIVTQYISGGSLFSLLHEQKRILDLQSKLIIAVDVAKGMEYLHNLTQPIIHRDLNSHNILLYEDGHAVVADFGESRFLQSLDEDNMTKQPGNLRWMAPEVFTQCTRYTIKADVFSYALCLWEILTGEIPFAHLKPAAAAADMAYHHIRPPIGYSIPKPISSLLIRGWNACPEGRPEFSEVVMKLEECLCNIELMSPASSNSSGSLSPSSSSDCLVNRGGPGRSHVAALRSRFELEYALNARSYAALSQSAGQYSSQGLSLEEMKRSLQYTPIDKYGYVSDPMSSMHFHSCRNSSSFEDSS
UniProt P31152, sequence (whole entry, looked up): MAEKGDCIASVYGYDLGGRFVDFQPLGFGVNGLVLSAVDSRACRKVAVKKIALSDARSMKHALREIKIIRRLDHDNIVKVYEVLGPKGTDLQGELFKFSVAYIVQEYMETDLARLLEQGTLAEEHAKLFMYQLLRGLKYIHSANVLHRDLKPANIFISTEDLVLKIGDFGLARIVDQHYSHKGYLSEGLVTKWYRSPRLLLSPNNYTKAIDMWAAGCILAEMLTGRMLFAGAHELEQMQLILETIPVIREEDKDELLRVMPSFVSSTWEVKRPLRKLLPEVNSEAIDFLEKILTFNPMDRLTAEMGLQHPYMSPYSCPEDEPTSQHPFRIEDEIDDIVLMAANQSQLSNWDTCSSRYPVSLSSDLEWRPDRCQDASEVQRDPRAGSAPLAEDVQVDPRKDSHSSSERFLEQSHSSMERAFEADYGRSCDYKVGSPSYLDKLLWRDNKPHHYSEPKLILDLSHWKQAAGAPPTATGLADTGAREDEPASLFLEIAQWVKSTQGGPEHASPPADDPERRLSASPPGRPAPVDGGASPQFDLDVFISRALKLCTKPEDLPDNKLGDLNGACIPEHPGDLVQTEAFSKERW

Study 1
SMILES: C[C@@H]1CN(c2ccc(-c3cc(C(=O)NCCOCCOCCOCCOCCOCCOCCNC(=O)/C=C/c4[nH]cc(C(=O)N[C@@H](CC(N)=O)c5ccc(F)c(Cl)c5)c4-c4ccc(Cl)cc4F)ccc3F)cc2NC(=O)c2ccc(F)cc2C(F)(F)F)C[C@H](C)N1C
Observed: thermal unfolding
Technique: differential scanning fluorimetry
Concentration: 5.5 µM
Reading: higher = more unfolded
Measurement: SYPRO Orange fluorescence
WDR5: WD repeat-containing protein 5 (WDR5, Homo sapiens, UniProt P61964)
DCAF1: DDB1- and CUL4-associated factor 1 (DCAF1, Homo sapiens, UniProt Q9Y4B6)
UniProt Q9Y4B6, sequence (whole entry, looked up): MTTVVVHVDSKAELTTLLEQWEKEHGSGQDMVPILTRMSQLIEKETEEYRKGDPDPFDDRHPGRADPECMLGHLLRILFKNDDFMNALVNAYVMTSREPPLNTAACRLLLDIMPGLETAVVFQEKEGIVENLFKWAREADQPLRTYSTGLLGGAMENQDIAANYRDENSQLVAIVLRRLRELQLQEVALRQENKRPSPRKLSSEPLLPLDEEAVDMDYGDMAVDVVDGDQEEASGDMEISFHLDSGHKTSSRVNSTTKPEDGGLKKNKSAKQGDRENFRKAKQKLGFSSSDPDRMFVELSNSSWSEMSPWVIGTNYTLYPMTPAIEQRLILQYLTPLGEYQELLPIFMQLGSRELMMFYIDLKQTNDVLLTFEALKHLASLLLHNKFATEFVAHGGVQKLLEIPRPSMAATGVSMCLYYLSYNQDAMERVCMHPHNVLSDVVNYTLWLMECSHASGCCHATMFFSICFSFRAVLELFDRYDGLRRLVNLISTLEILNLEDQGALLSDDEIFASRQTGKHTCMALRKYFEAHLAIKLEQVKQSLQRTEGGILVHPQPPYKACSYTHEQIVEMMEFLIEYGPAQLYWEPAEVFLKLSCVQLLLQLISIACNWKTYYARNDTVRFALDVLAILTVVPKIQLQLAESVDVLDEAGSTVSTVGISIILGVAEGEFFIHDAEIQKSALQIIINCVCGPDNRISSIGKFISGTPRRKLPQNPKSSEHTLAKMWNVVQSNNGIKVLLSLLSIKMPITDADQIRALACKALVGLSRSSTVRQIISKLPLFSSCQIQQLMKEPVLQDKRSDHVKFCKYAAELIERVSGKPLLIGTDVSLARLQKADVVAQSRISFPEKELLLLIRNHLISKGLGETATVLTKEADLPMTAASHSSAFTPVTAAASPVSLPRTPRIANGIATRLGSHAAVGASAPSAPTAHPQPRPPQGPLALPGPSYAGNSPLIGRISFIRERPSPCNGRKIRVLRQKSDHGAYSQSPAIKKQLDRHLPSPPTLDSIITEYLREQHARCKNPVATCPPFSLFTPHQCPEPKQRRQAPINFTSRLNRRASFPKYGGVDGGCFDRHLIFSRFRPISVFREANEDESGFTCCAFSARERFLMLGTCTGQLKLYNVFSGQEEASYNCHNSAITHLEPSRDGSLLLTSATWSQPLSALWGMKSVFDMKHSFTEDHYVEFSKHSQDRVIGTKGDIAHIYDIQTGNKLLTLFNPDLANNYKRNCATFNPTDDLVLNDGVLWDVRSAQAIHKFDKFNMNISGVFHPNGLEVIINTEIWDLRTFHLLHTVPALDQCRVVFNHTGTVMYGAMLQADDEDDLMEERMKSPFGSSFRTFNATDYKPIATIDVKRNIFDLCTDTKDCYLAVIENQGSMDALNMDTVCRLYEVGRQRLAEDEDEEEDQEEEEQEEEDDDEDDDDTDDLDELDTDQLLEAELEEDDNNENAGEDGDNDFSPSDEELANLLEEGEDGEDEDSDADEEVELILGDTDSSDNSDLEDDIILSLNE
WDR5; 43.6 °C: 14500 a.u.
WDR5; 93.41 °C: 50100 a.u.
DCAF1; 42.2 °C: 12900 a.u.
DCAF1; 42.8 °C: 13300 a.u.
WDR5; 67.01 °C: 19200 a.u.
WDR5; 72.41 °C: 37300 a.u.
DCAF1; 50.8 °C: 18800 a.u.
WDR5; 67.61 °C: 20700 a.u.
DCAF1; 76.01 °C: 42900 a.u.
DCAF1; 44.2 °C: 14200 a.u.
DCAF1; 37.2 °C: 10800 a.u.

Study 2
Structure (SMILES): CCN1/C(=C/C=C2\CCCC(/C=C/C3=[N+](CC)c4ccccc4C3(C)C)=C2NCCCCCCCCN2CCC(Nc3nc4ccccc4n3Cc3ccc(F)cc3)CC2)C(C)(C)c2ccccc21
Cell line: U-87 MG
Concentration: concentration not given
Reference: DMSO
Measurement: log2 fold change
item: DZIP3 mRNA: -0.939
item: SH3BGRL2 mRNA: 1.46
item: DZIP1L mRNA: -1.46
item: SGCD mRNA: -3.2
item: SGO1 mRNA: -1.65
item: FAM72B mRNA: -2.39
item: BDKRB1 mRNA: -1.57
item: TGFBR3 mRNA: -1.92
item: RCC2 mRNA: -0.803
item: RSRC2 mRNA: 1.02
item: MMP10 mRNA: 5.99
item: RB1CC1 mRNA: 1.02
item: DUS4L mRNA: 0.811
item: RAB3D mRNA: -0.82

Study 3
Structure (SMILES): CC[C@@]1(c2cccc(-c3c(F)cncc3OC)c2)C2=C(Nc3n[nH]cc31)[C@H](F)C(C)(C)CC2=O (single isomer, unassigned)
Concentration: 1 µM
Measurement: remaining binding
KDR (Homo sapiens, UniProt P35968); kinase binding, KINOMEscan; reference: DMSO control: 82%
MAPK4 (Homo sapiens, UniProt P31152); binding, competition with immobilised ligand: 100%
MAPK9 (Homo sapiens, UniProt P45984); binding, competition with immobilised ligand: 59%
BLK (Homo sapiens, UniProt P51451); binding, competition with immobilised ligand: 74%
PIK3CA (Homo sapiens, UniProt P42336, E542K); binding, competition with immobilised ligand: 66%
EIF2AK4 (Homo sapiens, UniProt Q9P2K8, S808G); kinase binding, KINOMEscan; reference: DMSO control: 100%
RIPK2 (Homo sapiens, UniProt O43353); binding, competition with immobilised ligand: 100%
TNNI3K (Homo sapiens, UniProt Q59H18); kinase binding, KINOMEscan; reference: DMSO control: 100%
SIK2 (Homo sapiens, UniProt Q9H0K1); kinase binding, KINOMEscan; reference: DMSO control: 100%
ACVRL1 (Homo sapiens, UniProt P37023); binding, competition with immobilised ligand: 94%
MAP3K12 (Homo sapiens, UniProt Q12852); kinase binding, KINOMEscan; reference: DMSO control: 58%
Ribosomal protein S6 kinase alpha-1, C-terminal kinase domain (RPS6KA1, Homo sapiens, UniProt Q15418); binding, competition with immobilised ligand: 100%
TNK1 (Homo sapiens, UniProt Q13470); kinase binding, KINOMEscan; reference: DMSO control: 100%
DAPK1 (Homo sapiens, UniProt P53355); binding, competition with immobilised ligand: 100%

Single results of other studies
Cc1ccc(O)c(C)c1-c1cnc2[nH]c(-c3cnc(N4CCC(CN5CCN(c6ccc(NC7CCC(=O)NC7=O)cc6F)CC5)CC4)nc3)cc2c1C#N (stereo not shown)
bioavailability (female CD-1 mouse, plasma; oral, 60 mg/kg): 93.9%

Cc1ccc(O)c(C)c1-c1cnc2[nH]c(-c3cnc(N4CC5(CC(CN6CCN(c7ccc(NC8CCC(=O)NC8=O)cc7F)CC6)C5)C4)nc3)cc2c1C#N (stereo not shown)
phospho-CDK1 (Thr14) level (HCC1569; CDK1 Thr14 phosphorylation, in-cell western; 1.37 nM; lower = stronger inhibition): 7.6 a.u. and 13.8 a.u.

Cc1ccc(O)c(C)c1-c1cnc2[nH]c(-c3cnc(N4CCC5(CC4)CC(N4CCN(c6ccc(NC7CCC(=O)NC7=O)cc6F)CC4)CO5)nc3)cc2c1C#N (stereo not shown)
AUC(0-t) (female CD-1 mouse, plasma; oral, 20 mg/kg): 3090 ng·h/mL

Cc1ccc(O)c(C)c1-c1cnc2[nH]c(-c3cnc(N4CCC(CN5CCN(c6ccc7c(c6)C(=O)N(C6CCC(=O)NC6=O)C7=O)CC5)CC4)nc3)cc2c1C#N (stereo not shown)
half-life (female CD-1 mouse, plasma; oral, 10 mg/kg, fasted): 90 min

Some of these lines once more (study 3):
Ribosomal protein S6 kinase alpha-1, C-terminal kinase domain (RPS6KA1, Homo sapiens, UniProt Q15418); binding, competition with immobilised ligand: 100%
MAPK9 (Homo sapiens, UniProt P45984); binding, competition with immobilised ligand: 59%
MAP3K12 (Homo sapiens, UniProt Q12852); kinase binding, KINOMEscan; reference: DMSO control: 58%
ACVRL1 (Homo sapiens, UniProt P37023); binding, competition with immobilised ligand: 94%
KDR (Homo sapiens, UniProt P35968); kinase binding, KINOMEscan; reference: DMSO control: 82%
BLK (Homo sapiens, UniProt P51451); binding, competition with immobilised ligand: 74%
